# Measurements collected from several papers.
# Compare with care: the assays were run in different laboratories.
# Sample: plasma
Structure (SMILES),assay,test system,setting,endpoint,result
CCCOc1ccc(S(N)(=O)=O)cc1-c1nc2c(CCC)nn(C)c2c(=O)[nH]1,,healthy male humans,"oral, 200 mg udenafil",Tmax (median),2 h
CC(OC1OC(C(=O)O)C(O)C(O)C1O)c1nc(-c2ccc3c(c2)CCC3NC(=O)c2cnn(C)c2)no1 (centres unmarked),,human,"oral, 20 mg of aficamten, radioprofiling",tmax,24 h
Cc1c(Cl)c(C)[n+]([O-])c(Cl)c1-c1no[14c](-c2cc(O)c(O)c([N+](=O)[O-])c2)n1,measured: total radioactivity,"human, male","oral, 100 mg",tmax,2 h
CC[C@H](C)[C@H](NC(=O)[C@H](CC(C)C)NC(=O)[C@H](Cc1c[nH]c2ccccc12)NC(=O)[C@H](C)NC(=O)[C@@H](NC(=O)[C@H](Cc1ccccc1)NC(=O)[C@H](CC(=O)O)NC(=O)[C@H](CCCNC(=N)N)NC(=O)[C@H](C)NC(=O)[C@H](C)NC(=O)[C@H](CC(C)C)NC(=O)[C@H](C)NC(=O)[C@H](CC(=O)O)NC(=O)[C@H](CC(C)C)NC(=O)[C@@H](NC(=O)[C@@H](NC(=O)[C@H](C)NC(=O)[C@H](CC(C)C)NC(=O)[C@H](CCC(=O)O)NC(=O)[C@H](CO)NC(=O)[C@H](CO)NC(=O)[C@H](Cc1ccccc1)NC(=O)[C@@H](NC(=O)CNC(=O)[C@H](CCC(=O)O)NC(=O)CNC(=O)[C@@H](N)Cc1c[nH]cn1)[C@@H](C)O)[C@@H](C)O)[C@@H](C)CC)[C@@H](C)CC)C(=O)N[C@@H](C)C(=O)N[C@H](C(=O)N[C@@H](CCCCN)C(=O)N[C@H](C(=O)N[C@H](C(=O)N[C@@H](CC(=O)O)C(=O)N[C@@H](CCCCN)C(=O)N[C@@H](CCCCN)C(=O)O)[C@@H](C)O)[C@@H](C)CC)[C@@H](C)O,immunoaffinity LC-MS/MS,healthy human subjects,"intravenous infusion, 1 mg single dose, infused over 15 min",tmax,0.63 h
CCc1c2c(nc3ccc(O)cc13)-c1cc3c(c(=O)n1C2)COC(=O)[C@]3(O)CC,,human patients,"intravenous, 3 mg/m^2 of parent drug",Tmax,0.25 h
CC[C@H](C)[C@H](NC(=O)[C@H](CC(C)C)NC(=O)[C@H](Cc1c[nH]c2ccccc12)NC(=O)[C@H](C)NC(=O)[C@@H](NC(=O)[C@H](Cc1ccccc1)NC(=O)[C@H](CC(=O)O)NC(=O)[C@H](CCCNC(=N)N)NC(=O)[C@H](C)NC(=O)[C@H](C)NC(=O)[C@H](CC(C)C)NC(=O)[C@H](C)NC(=O)[C@H](CC(=O)O)NC(=O)[C@H](CC(C)C)NC(=O)[C@@H](NC(=O)[C@@H](NC(=O)[C@H](C)NC(=O)[C@H](CC(C)C)NC(=O)[C@H](CCC(=O)O)NC(=O)[C@H](CO)NC(=O)[C@H](CO)NC(=O)[C@H](Cc1ccccc1)NC(=O)[C@@H](NC(=O)CNC(=O)[C@H](CCC(=O)O)NC(=O)CNC(=O)[C@@H](N)Cc1cnc[nH]1)[C@@H](C)O)[C@@H](C)O)[C@@H](C)CC)[C@@H](C)CC)C(=O)N[C@@H](C)C(=O)N[C@H](C(=O)N[C@@H](CCCCN)C(=O)N[C@H](C(=O)N[C@H](C(=O)N[C@@H](CC(=O)O)C(=O)N[C@@H](CCCCN)C(=O)N[C@@H](CCCCN)C(=O)N[C@@H](CCCCN)C(=O)N[C@@H](CCCCN)C(=O)N[C@@H](CCCCN)C(=O)N[C@@H](CCCCN)C(N)=O)[C@@H](C)O)[C@@H](C)CC)[C@@H](C)O,,healthy humans,"subcutaneous, 5 mg once weekly, 6 doses, day 36, median",tmax,12 h
Cn1c(=O)oc2ccc(-c3ccc(CC(C#N)NC(=O)C4CNCCCO4)c(F)c3)cc21 (centres unmarked),,human volunteers,"60 mg single dose, fasted, median",Tmax,0.75 h
CC[C@H](C)[C@H](NC(=O)[C@H](CC(C)C)NC(=O)[C@H](Cc1c[nH]c2ccccc12)NC(=O)[C@H](C)NC(=O)[C@@H](NC(=O)[C@H](Cc1ccccc1)NC(=O)[C@H](CC(=O)O)NC(=O)[C@H](CCCNC(=N)N)NC(=O)[C@H](C)NC(=O)[C@H](C)NC(=O)[C@H](CC(C)C)NC(=O)[C@H](C)NC(=O)[C@H](CC(=O)O)NC(=O)[C@H](CC(C)C)NC(=O)[C@@H](NC(=O)[C@@H](NC(=O)[C@H](C)NC(=O)[C@H](CC(C)C)NC(=O)[C@H](CCC(=O)O)NC(=O)[C@H](CO)NC(=O)[C@H](CO)NC(=O)[C@H](Cc1ccccc1)NC(=O)[C@@H](NC(=O)CNC(=O)[C@H](CCC(=O)O)NC(=O)CNC(=O)[C@@H](N)Cc1c[nH]cn1)[C@@H](C)O)[C@@H](C)O)[C@@H](C)CC)[C@@H](C)CC)C(=O)N[C@@H](C)C(=O)N[C@H](C(=O)N[C@@H](CCCCN)C(=O)N[C@H](C(=O)N[C@H](C(=O)N[C@@H](CC(=O)O)C(=O)N[C@@H](CCCCN)C(=O)O)[C@@H](C)O)[C@@H](C)CC)[C@@H](C)O,,healthy human subjects,"subcutaneous, 5 mg once weekly, day 36 after 6 doses, steady state, median",tmax,24 h
CN1CCC[C@]1(C)/C=C/S(=O)(=O)NC(=O)Nc1c2c(cc3c1CCC3)CCC2,,human,"oral, 100 mg twice daily, day 14, multiple ascending dose","Tmax after first dose, median",1 h
O=C(CCc1ccc(CNC(C(=O)OC2CCCC2)C2CCCCC2)cn1)NO (centres unmarked),,human,"oral, 20 mg once daily, day 1, median",Tmax,0.5 h
CCc1cc(Nc2nc(-c3ccc(-n4cnc(C)c4)c(F)c3)cs2)c(C)cc1C,,"human, both sexes","oral, 200 mg, day 1, multiple dose, geometric mean",Tmax,4.1 h

# For quick reference, copied from above:
Structure (SMILES),assay,test system,setting,endpoint,result
CC[C@H](C)[C@H](NC(=O)[C@H](CC(C)C)NC(=O)[C@H](Cc1c[nH]c2ccccc12)NC(=O)[C@H](C)NC(=O)[C@@H](NC(=O)[C@H](Cc1ccccc1)NC(=O)[C@H](CC(=O)O)NC(=O)[C@H](CCCNC(=N)N)NC(=O)[C@H](C)NC(=O)[C@H](C)NC(=O)[C@H](CC(C)C)NC(=O)[C@H](C)NC(=O)[C@H](CC(=O)O)NC(=O)[C@H](CC(C)C)NC(=O)[C@@H](NC(=O)[C@@H](NC(=O)[C@H](C)NC(=O)[C@H](CC(C)C)NC(=O)[C@H](CCC(=O)O)NC(=O)[C@H](CO)NC(=O)[C@H](CO)NC(=O)[C@H](Cc1ccccc1)NC(=O)[C@@H](NC(=O)CNC(=O)[C@H](CCC(=O)O)NC(=O)CNC(=O)[C@@H](N)Cc1cnc[nH]1)[C@@H](C)O)[C@@H](C)O)[C@@H](C)CC)[C@@H](C)CC)C(=O)N[C@@H](C)C(=O)N[C@H](C(=O)N[C@@H](CCCCN)C(=O)N[C@H](C(=O)N[C@H](C(=O)N[C@@H](CC(=O)O)C(=O)N[C@@H](CCCCN)C(=O)N[C@@H](CCCCN)C(=O)N[C@@H](CCCCN)C(=O)N[C@@H](CCCCN)C(=O)N[C@@H](CCCCN)C(=O)N[C@@H](CCCCN)C(N)=O)[C@@H](C)O)[C@@H](C)CC)[C@@H](C)O,,healthy humans,"subcutaneous, 5 mg once weekly, 6 doses, day 36, median",tmax,12 h
Cn1c(=O)oc2ccc(-c3ccc(CC(C#N)NC(=O)C4CNCCCO4)c(F)c3)cc21 (centres unmarked),,human volunteers,"60 mg single dose, fasted, median",Tmax,0.75 h
